Results gathered from unrelated publications.
Protocols differ between the studies behind these lines. Numbers after ± are the reported error.

Chains of the proteins cited; added tags and fusions are not shown. Residues count along the entry.
UniProt P02769, 25-607 limits assumed: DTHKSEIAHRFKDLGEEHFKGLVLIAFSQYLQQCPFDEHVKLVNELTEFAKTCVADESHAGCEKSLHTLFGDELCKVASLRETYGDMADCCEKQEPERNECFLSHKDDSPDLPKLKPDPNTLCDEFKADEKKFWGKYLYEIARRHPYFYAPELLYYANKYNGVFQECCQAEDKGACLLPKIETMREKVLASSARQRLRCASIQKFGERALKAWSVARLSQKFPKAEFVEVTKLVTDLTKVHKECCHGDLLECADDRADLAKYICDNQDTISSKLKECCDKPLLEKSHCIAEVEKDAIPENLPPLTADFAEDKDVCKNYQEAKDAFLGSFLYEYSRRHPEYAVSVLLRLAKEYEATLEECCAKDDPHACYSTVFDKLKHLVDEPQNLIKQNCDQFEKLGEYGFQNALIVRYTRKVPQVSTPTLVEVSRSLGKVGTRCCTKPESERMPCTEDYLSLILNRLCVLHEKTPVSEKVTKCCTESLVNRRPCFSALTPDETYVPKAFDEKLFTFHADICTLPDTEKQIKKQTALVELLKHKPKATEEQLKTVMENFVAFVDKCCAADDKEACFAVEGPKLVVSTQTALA
UniProt P33261, whole entry: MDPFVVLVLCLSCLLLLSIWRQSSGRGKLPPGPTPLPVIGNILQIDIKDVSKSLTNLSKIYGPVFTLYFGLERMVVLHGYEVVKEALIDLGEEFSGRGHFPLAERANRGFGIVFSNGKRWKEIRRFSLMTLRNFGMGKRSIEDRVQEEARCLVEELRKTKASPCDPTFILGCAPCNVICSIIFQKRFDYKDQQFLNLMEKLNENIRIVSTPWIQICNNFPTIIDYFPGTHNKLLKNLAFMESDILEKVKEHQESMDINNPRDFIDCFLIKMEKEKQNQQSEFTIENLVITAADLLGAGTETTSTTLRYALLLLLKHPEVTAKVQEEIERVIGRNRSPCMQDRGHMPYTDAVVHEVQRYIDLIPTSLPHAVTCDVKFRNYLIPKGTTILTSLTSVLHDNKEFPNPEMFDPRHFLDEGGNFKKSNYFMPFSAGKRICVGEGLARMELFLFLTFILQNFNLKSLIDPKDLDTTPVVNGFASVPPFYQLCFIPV
UniProt P02768, 25-609 limits assumed: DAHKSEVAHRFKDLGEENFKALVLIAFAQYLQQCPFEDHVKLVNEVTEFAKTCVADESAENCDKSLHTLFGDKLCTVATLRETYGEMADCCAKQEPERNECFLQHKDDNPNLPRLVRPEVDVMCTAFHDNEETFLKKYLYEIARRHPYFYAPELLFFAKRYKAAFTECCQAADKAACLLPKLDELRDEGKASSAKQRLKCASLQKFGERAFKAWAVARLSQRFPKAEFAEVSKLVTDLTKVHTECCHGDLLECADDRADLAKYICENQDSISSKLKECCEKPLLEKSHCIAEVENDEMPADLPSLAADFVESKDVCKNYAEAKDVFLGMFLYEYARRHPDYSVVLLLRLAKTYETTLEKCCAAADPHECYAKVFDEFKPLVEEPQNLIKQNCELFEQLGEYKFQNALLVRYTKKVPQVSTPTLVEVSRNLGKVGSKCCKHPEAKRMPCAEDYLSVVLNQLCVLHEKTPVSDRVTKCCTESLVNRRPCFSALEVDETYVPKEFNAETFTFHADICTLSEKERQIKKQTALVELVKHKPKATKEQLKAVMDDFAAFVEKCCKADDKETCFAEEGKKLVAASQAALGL
UniProt Q9BXA6, whole entry: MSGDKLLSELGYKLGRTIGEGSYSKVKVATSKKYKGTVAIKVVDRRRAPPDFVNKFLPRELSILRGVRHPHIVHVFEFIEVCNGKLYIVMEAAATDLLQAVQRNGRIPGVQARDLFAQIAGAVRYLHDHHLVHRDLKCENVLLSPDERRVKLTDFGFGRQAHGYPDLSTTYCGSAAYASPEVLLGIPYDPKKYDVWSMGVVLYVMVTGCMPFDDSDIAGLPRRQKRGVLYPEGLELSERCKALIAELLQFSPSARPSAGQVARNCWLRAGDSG

O=C(Cc1ccccc1)N1CCN(c2nc3ccccc3s2)CC1 gave an IC50 of greater than 100 µM (Albumin (ALB, Bos taurus, UniProt P02769); binding, fluorescence quenching; pH 7.4).
The revertants of O=C(Nc1ccccc1)c1cc([N+](=O)[O-])ccc1Cl is reported as 388 ± 32 revertants/plate (Salmonella typhimurium; Ames plate incorporation; TA100; 15 µg/plate, without metabolic activation).
With CCCc1nn2c(=O)cc(CSc3nc(-c4ccc(C)cc4)nc4cc(=O)[nH]n34)nc2s1 the particle size was 268 nm (dynamic light scattering; assay buffer; 40 µM, without Tween 20).
With CCOc1ccc2cc(-c3nn(CC4CCN(C)CC4)c4ncnc(N)c34)ccc2n1 the half-life was greater than 2 h (concentration not given, mouse).
The viability of CC(=O)N1C[C@@H](COP(=O)(N(C)C)N2C[C@@H](COP(=O)(N(C)C)N3C[C@@H](COP(=O)(N(C)C)N4C[C@@H](COP(=O)(N(C)C)N5C[C@@H](COP(=O)(N(C)C)N6C[C@@H](COP(=O)(N(C)C)N7C[C@@H](COP(=O)(N(C)C)N8C[C@@H](COP(=O)(N(C)C)N9C[C@@H](COP(=O)(N(C)C)N%10C[C@@H](COP(=O)(N(C)C)N%11C[C@@H](COP(=O)(N(C)C)N%12C[C@@H](COP(=O)(N(C)C)N%13C[C@@H](COP(=O)(N(C)C)N%14C[C@@H](COP(=O)(N(C)C)N%15C[C@@H](COP(=O)(N(C)C)N%16C[C@@H](COP(=O)(N(C)C)N%17C[C@@H](COP(=O)(N(C)C)N%18C[C@@H](COP(=O)(N(C)C)N%19C[C@@H](COP(=O)(N(C)C)N%20C[C@@H](COP(=O)(N(C)C)N%21C[C@@H](COP(=O)(N(C)C)N%22C[C@@H](COP(=O)(N(C)C)N%23C[C@@H](COP(=O)(N(C)C)N%24CCN(C(=O)CCCN%25C(=O)CC(SC[C@H](NC(=O)[C@H](CCCNC(=N)N)NC(=O)[C@H](CCCNC(=N)N)NC(=O)[C@H](CCCNC(=N)N)NC(=O)[C@H](CCCNC(=N)N)NC(=O)[C@H](Cc%26ccccc%26)NC(=O)[C@H](Cc%26ccccc%26)NC(=O)[C@H](CCCNC(=N)N)NC(=O)[C@H](CCCNC(=N)N)NC(=O)[C@H](CCCNC(=N)N)NC(=O)[C@H](CCCNC(=N)N)NC(=O)[C@@H](N)CCCNC(=N)N)C(N)=O)C%25=O)CC%24)O[C@@H](n%24cnc%25c(=O)[nH]c(N)nc%25%24)C%23)O[C@@H](n%23cc(C)c(=O)[nH]c%23=O)C%22)O[C@@H](n%22ccc(N)nc%22=O)C%21)O[C@@H](n%21cnc%22c(N)ncnc%22%21)C%20)O[C@@H](n%20cc(C)c(=O)[nH]c%20=O)C%19)O[C@@H](n%19ccc(N)nc%19=O)C%18)O[C@@H](n%18cc(C)c(=O)[nH]c%18=O)C%17)O[C@@H](n%17cc(C)c(=O)[nH]c%17=O)C%16)O[C@@H](n%16cnc%17c(=O)[nH]c(N)nc%17%16)C%15)O[C@@H](n%15ccc(N)nc%15=O)C%14)O[C@@H](n%14cnc%15c(=O)[nH]c(N)nc%15%14)C%13)O[C@@H](n%13ccc(N)nc%13=O)C%12)O[C@@H](n%12ccc(N)nc%12=O)C%11)O[C@@H](n%11cnc%12c(N)ncnc%12%11)C%10)O[C@@H](n%10cc(C)c(=O)[nH]c%10=O)C9)O[C@@H](n9cc(C)c(=O)[nH]c9=O)C8)O[C@@H](n8cc(C)c(=O)[nH]c8=O)C7)O[C@@H](n7cc(C)c(=O)[nH]c7=O)C6)O[C@@H](n6cc(C)c(=O)[nH]c6=O)C5)O[C@@H](n5cnc6c(=O)[nH]c(N)nc65)C4)O[C@@H](n4cc(C)c(=O)[nH]c4=O)C3)O[C@@H](n3cnc4c(=O)[nH]c(N)nc43)C2)O[C@@H](n2cnc3c(=O)[nH]c(N)nc32)C1 (some centres unmarked) is reported as 103% (BCBL1 cells; 8 µM; baseline: mock-treated).
Oc1ccc(C2NCCc3c2[nH]c2ccc(Cl)cc32)cc1O (centres unmarked) has a particle size of 8.3 nm (dynamic light scattering; assay buffer; 40 µM, with Tween 20).
CO[C@]12CC[C@@]3(C[C@@H]1C(C)(C)O)[C@H]1Cc4ccc(O)c5c4[C@@]3(CCN1CC1CC1)[C@H]2O5 has an inhibition of 33.7% (CYP2C19 (Homo sapiens, UniProt P33261); human liver microsomes; 10 µM).
The particle size of Cc1ccc(CCNC(=O)c2cnn3c(O)c(Cc4cc(C)ccc4C)c(C)nc23)cc1 is reported as 628 nm (dynamic light scattering; assay buffer; 40 µM, without Tween 20).
CC#C/C(=N\OC[C@H]1COCCN1)c1ccc2ncnc(Nc3ccc(OCc4cccc(F)c4)c(Cl)c3)c2c1 gave a protein binding of greater than 99% (Albumin (ALB, Homo sapiens, UniProt P02768); serum albumin).
Under cell number, COc1cc(OC)c2ccccc2c1C=C1C(=O)NC(=S)NC1=O is recorded as “no effect” (human CD19+ B lymphocytes; MTS; concentration not given, 3 days).
For CCCSc1nc(N[C@@H]2C[C@H]2c2ccc(F)c(F)c2)c2nnn([C@@H]3C[C@H](OCCO)[C@@H](O)[C@H]3O)c2n1, the plasma concentration was 32.3 ± 56.7 ng/mL (STEMI patients, plasma; 180 mg loading dose, 1 h, added: morphine).
CC[C@H](C)[C@H](NC(=O)[C@H](Cc1ccc(O)cc1)NC(=O)[C@H](CO)NC(=O)[C@H](CCC(=O)O)NC(=O)[C@H](CCC(=O)O)NC(=O)[C@H](CC(C)C)NC(=O)[C@H](CCCCN)NC(=O)[C@H](CCCCN)NC(=O)[C@@H](NC(=O)[C@@H](NC(=O)[C@H](CCC(=O)O)NC(=O)[C@H](CCC(=O)O)NC(=O)[C@H](CC(C)C)NC(=O)[C@H](CCCCN)NC(=O)[C@H](CCCCN)NC(=O)[C@H](CCSC)NC(=O)[C@H](CCC(=O)O)NC(=O)[C@H](Cc1ccc(O)cc1)NC(=O)[C@H](CCC(=O)O)NC(=O)[C@H](CC(C)C)NC(=O)[C@H](CC(=O)O)NC(=O)[C@H](CC(C)C)NC(=O)[C@H](CC(C)C)NC(=O)[C@@H](NC(=O)[C@@H](NC(=O)[C@H](CC(N)=O)NC(=O)[C@@H](NC(=O)[C@H](CCC(N)=O)NC(=O)[C@@H](NC(=O)[C@H](CC(C)C)NC(=O)[C@H](CO)NC(C)=O)[C@@H](C)O)[C@@H](C)CC)[C@@H](C)O)[C@@H](C)O)C(C)C)C(C)C)C(=O)N[C@@H](CC(=O)O)C(=O)N[C@@H](CC(C)C)C(=O)N[C@@H](CCCCN)C(=O)N[C@@H](CCC(=O)O)C(=O)N[C@@H](CC(C)C)C(N)=O gave a CC50 of greater than 100 µM (Huh-7; cytotoxicity; 48 h).
CCN1CCN(Cc2ccc(NC(=O)c3ccc(C)c(/C=C/c4cnc5[nH]ccc5c4OC)c3)cc2C(F)(F)F)CC1 — result for “log2 fold change”: 0.708 (TSSK6 (Homo sapiens, UniProt Q9BXA6); kinase-CDC37 interaction, inhibitor; human cells; 5 µM; baseline: vehicle).
For C[C@H](Cc1ccc(O)c(O)c1)[C@@H](C)Cc1ccc(O)c(O)c1, “amount in dermis” read 11.1 ± 1.94 µg (human skin; 3% solution, 8 h, skin UV-treated 10 min).
The IC50 of Cc1ccc2nc(N3CCN(C(=O)Cc4ccccc4)CC3)sc2c1 is reported as 40.1 µM (Albumin (ALB, Bos taurus, UniProt P02769); binding, fluorescence quenching; pH 7.4).
The CC50 of CSCC[C@@H](C=O)NC(=O)[C@H](CC(C)C)NC(=O)[C@H](CC(C)C)NC(C)=O is reported as greater than 100 µM (MDCK; neutral red uptake; 48 h).
With C=C[C@@H]1[C@H]2CCC[C@]1(c1cccc(O)c1)CCN2CCc1ccccc1 the half-life was greater than 2 h (human cytosol 2 mg/mL; 1 µM, pH 7.4).
With `zidovudine` the CC50 was greater than 100 µM (human PBM cells; cytotoxicity).
O=[N+]([O-])c1cc2c(ccc3c4cc([N+](=O)[O-])oc4ccc23)o1 gave a CC50 of 21.5 µg/mL (Vero; ATP; 72 h).
The half-life of Cc1cc2ccccc2n1CCNC(=O)c1ccc(-c2nnn[nH]2)cc1 is reported as 0.417 h (mouse liver microsomes).

For quick reference, copied from above:
The viability of CC(=O)N1C[C@@H](COP(=O)(N(C)C)N2C[C@@H](COP(=O)(N(C)C)N3C[C@@H](COP(=O)(N(C)C)N4C[C@@H](COP(=O)(N(C)C)N5C[C@@H](COP(=O)(N(C)C)N6C[C@@H](COP(=O)(N(C)C)N7C[C@@H](COP(=O)(N(C)C)N8C[C@@H](COP(=O)(N(C)C)N9C[C@@H](COP(=O)(N(C)C)N%10C[C@@H](COP(=O)(N(C)C)N%11C[C@@H](COP(=O)(N(C)C)N%12C[C@@H](COP(=O)(N(C)C)N%13C[C@@H](COP(=O)(N(C)C)N%14C[C@@H](COP(=O)(N(C)C)N%15C[C@@H](COP(=O)(N(C)C)N%16C[C@@H](COP(=O)(N(C)C)N%17C[C@@H](COP(=O)(N(C)C)N%18C[C@@H](COP(=O)(N(C)C)N%19C[C@@H](COP(=O)(N(C)C)N%20C[C@@H](COP(=O)(N(C)C)N%21C[C@@H](COP(=O)(N(C)C)N%22C[C@@H](COP(=O)(N(C)C)N%23C[C@@H](COP(=O)(N(C)C)N%24CCN(C(=O)CCCN%25C(=O)CC(SC[C@H](NC(=O)[C@H](CCCNC(=N)N)NC(=O)[C@H](CCCNC(=N)N)NC(=O)[C@H](CCCNC(=N)N)NC(=O)[C@H](CCCNC(=N)N)NC(=O)[C@H](Cc%26ccccc%26)NC(=O)[C@H](Cc%26ccccc%26)NC(=O)[C@H](CCCNC(=N)N)NC(=O)[C@H](CCCNC(=N)N)NC(=O)[C@H](CCCNC(=N)N)NC(=O)[C@H](CCCNC(=N)N)NC(=O)[C@@H](N)CCCNC(=N)N)C(N)=O)C%25=O)CC%24)O[C@@H](n%24cnc%25c(=O)[nH]c(N)nc%25%24)C%23)O[C@@H](n%23cc(C)c(=O)[nH]c%23=O)C%22)O[C@@H](n%22ccc(N)nc%22=O)C%21)O[C@@H](n%21cnc%22c(N)ncnc%22%21)C%20)O[C@@H](n%20cc(C)c(=O)[nH]c%20=O)C%19)O[C@@H](n%19ccc(N)nc%19=O)C%18)O[C@@H](n%18cc(C)c(=O)[nH]c%18=O)C%17)O[C@@H](n%17cc(C)c(=O)[nH]c%17=O)C%16)O[C@@H](n%16cnc%17c(=O)[nH]c(N)nc%17%16)C%15)O[C@@H](n%15ccc(N)nc%15=O)C%14)O[C@@H](n%14cnc%15c(=O)[nH]c(N)nc%15%14)C%13)O[C@@H](n%13ccc(N)nc%13=O)C%12)O[C@@H](n%12ccc(N)nc%12=O)C%11)O[C@@H](n%11cnc%12c(N)ncnc%12%11)C%10)O[C@@H](n%10cc(C)c(=O)[nH]c%10=O)C9)O[C@@H](n9cc(C)c(=O)[nH]c9=O)C8)O[C@@H](n8cc(C)c(=O)[nH]c8=O)C7)O[C@@H](n7cc(C)c(=O)[nH]c7=O)C6)O[C@@H](n6cc(C)c(=O)[nH]c6=O)C5)O[C@@H](n5cnc6c(=O)[nH]c(N)nc65)C4)O[C@@H](n4cc(C)c(=O)[nH]c4=O)C3)O[C@@H](n3cnc4c(=O)[nH]c(N)nc43)C2)O[C@@H](n2cnc3c(=O)[nH]c(N)nc32)C1 (some centres unmarked) is reported as 103% (BCBL1 cells; 8 µM; baseline: mock-treated).
CO[C@]12CC[C@@]3(C[C@@H]1C(C)(C)O)[C@H]1Cc4ccc(O)c5c4[C@@]3(CCN1CC1CC1)[C@H]2O5 has an inhibition of 33.7% (CYP2C19 (Homo sapiens, UniProt P33261); human liver microsomes; 10 µM).
CCN1CCN(Cc2ccc(NC(=O)c3ccc(C)c(/C=C/c4cnc5[nH]ccc5c4OC)c3)cc2C(F)(F)F)CC1 — result for “log2 fold change”: 0.708 (TSSK6 (Homo sapiens, UniProt Q9BXA6); kinase-CDC37 interaction, inhibitor; human cells; 5 µM; baseline: vehicle).
